Experimental data gathered from unrelated publications.
Every numbered part comes from another study and shows a few of its results, in no order. Changes are numbered by the printed parent chain.

Set 1 — method: DHFR PCA, deep sequencing; medium: yeast; with: (+)-ABA 0.0091 µM; baseline: wild-type fitted maximum; reading: higher = stronger binding
Target: ABI1, truncated, D143A, DHFR fusion (Arabidopsis thaliana)
Setting: methotrexate growth selection, single substitutions
Starting sequence: PYL1, truncated, DHFR fusion (Arabidopsis thaliana); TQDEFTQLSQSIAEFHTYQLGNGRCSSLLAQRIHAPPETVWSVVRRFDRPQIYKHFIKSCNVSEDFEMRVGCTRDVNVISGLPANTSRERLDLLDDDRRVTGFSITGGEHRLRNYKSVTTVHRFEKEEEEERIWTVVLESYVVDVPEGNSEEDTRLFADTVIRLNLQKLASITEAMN
Change | relative binding score [%]
G21T | 34.8
Q31W | 2.67
R123Y | -1.59
T73K | -3.68
D92Q | -11.4
K168M | -0.576
I33F | -5.62
D65Y | 3.3
H16I | -3.69
E147Y | 10.4
Y141D | 1.26

Set 2 — method: protein binding microarray; form: double-stranded DNA, one strand shown; medium: in vitro; concentration: not given; baseline: not given; reading: higher = stronger binding
Target: Histone acetyltransferase KAT6A, winged helix 2, GST fusion (KAT6A, Homo sapiens, UniProt Q92794, residues 85-181)
Setting: 8-mer, flanks averaged, mean of 2 arrays, mostly near background
Target sequence (chain): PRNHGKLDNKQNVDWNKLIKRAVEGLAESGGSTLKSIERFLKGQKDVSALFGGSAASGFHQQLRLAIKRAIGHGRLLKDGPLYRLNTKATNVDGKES
Sequence | E-score
AGCCATAC | -0.0949
CGCGCCCA | 0.2
ACCTCGCA | 0.0243
GGCCTTAC | -0.223
TGGTTACA | -0.103
AGGAGTCA | -0.0325
AGCTGTCG | -0.186
CAGGTACC | -0.0645
AGTAATGC | -0.0657
GCCTTAAA | 0.125
ACACAATC | 0.00519
CCAGACAC | -0.0312
TAAGTGGA | 0.0827
CGCCCTCA | -0.0917
CAAACTTA | -0.163
CATTTTGG | 0.0167
AAATCGAA | -0.0537
CCCAGCTA | -0.0427
GATATTTA | 0.0363
CATGTCGG | 0.171
ATAGAAAG | -0.0988
CTTGGGTC | 0.0296
GTTCGCGA | 0.188
CACGAGGG | 0.111
CTGTGCCA | -0.104

Set 3 — method: RNA Bind-n-Seq; form: RNA; medium: in vitro; concentration: 1 µM; setting: whole 134-nt RNA, ends assumed; with: 150 mM KCl; baseline: input library; reading: higher = stronger binding
Target: Ras GTPase-activating protein-binding protein 1, C-terminal RGG region (G3BP1, Homo sapiens, UniProt Q13283)
Chain of UniProt Q13283 (whole entry, looked up): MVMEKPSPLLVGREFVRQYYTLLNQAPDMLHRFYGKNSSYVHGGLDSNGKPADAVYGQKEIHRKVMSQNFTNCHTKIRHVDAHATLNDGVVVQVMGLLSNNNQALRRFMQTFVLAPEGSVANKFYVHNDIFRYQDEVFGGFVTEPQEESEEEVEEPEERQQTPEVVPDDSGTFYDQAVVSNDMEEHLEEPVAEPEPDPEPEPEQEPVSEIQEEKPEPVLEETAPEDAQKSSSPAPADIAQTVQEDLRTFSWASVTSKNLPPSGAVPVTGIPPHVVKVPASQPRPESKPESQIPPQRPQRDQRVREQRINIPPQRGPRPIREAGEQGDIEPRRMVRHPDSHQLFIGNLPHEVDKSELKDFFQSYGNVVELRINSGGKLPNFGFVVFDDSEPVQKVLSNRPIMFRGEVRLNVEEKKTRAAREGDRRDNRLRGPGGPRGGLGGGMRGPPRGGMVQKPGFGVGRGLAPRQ
All sequences stand within: GGGAGUUCUACAGUCCGACGAUC … UGGAAUUCUCGGGUGUCAAGG
Sequence | log2 enrichment
UUCCUCAAGUCCUGUGCUACACAUCGUAUGUACCGAAUCGGUGGUGGAGGAAAGUAUUAUGUUACGCCGUUCGGAUCUGCACUUCCAGCA | -1.01
GUCCUGUGCUACACAUCGUAUGUACCGAAUCGGGUUUUUGGGGUUUUUGGGGUUUUUGGAAAGUAUUAUGUUACGCCGUUCGGAUCUGCA | -0.461
ACCAUGCAGGUGGGCAUCUUUGGGAAGUGGGGCAAAAGGGGGAUAGGGAGGGGGGUAACACUUUGGGAACAGGUGGUCCCAGGUCGUUUC | -1.06
GUCCUGUGCUACACAUCGUAUGUACCGAAUCGGGUUUGGGUUUUUUUGGGUUUUUGGGAAAGUAUUAUGUUACGCCGUUCGGAUCUGCAC | 0.334
UGGCCCUGGUGGCAUGCGGGGAGGAAGAGGUGGCCUCAUGGAUCGUGGUGGUCCCGGUGGAAUGUUGAGAGGUGGCCGUGGUGGAGACAG | 3.35
UGCCUUGCAGAUACGUGGCUUUCCUGAAGCUGUUCCUGGAGACGGCGGAGAAGCACUUCAUGGUGGGCCACCGUGUCCACUACUAUGUCU | -0.99
CUGUGCUACACAUCGUAUGUACCGAAUCGGGUUUUUUUGGGUUUUUUUGGGGUUUUUUUGGAAAGUAUUAUGUUACGCCGUUCGGAUCUG | -0.988
CACAGACAACACGCACCCACACAGACACAGAGGGAAGGGGUUGGGAUGGGGACAGGGUGCACAGCAGGGCAAAGUAGGACCCCAGCCCCU | -0.308
AGUCCUGUGCUACACAUCGUAUGUACCGAAUCGGGGCCCCGGGGCCCCGGCCCCGGGAAAGUAUUAUGUUACGCCGUUCGGAUCUGCACU | -2.44
ACCAUGCAGGUGGGCAUCUUUGGGAAGUGGGGCAAGGGGGGGAUAGGGAGGGGGGUAACACUCUGGGAACAGGUGGUCCCAGGUCGUUUC | 1.93
UCAAGUCCUGUGCUACACAUCGUAUGUACCGAAUCGGUUUGGAGGAAAAAAAGGAAAGUAUUAUGUUACGCCGUUCGGAUCUGCACUUCC | -1.21
UGGGAGGUGGAUUUUGUUUAUUUUUUUAGCUCAUUUCCAGGGGUGGGAAUUUUUUUUUAAUAUGUGUCAUGAAUAAAGUCGUUUUUGAAA | 3.15
UUGUUCUGGCAUAAACAUAACAUUGAGAAGUCCCUUGCUGAUCUCCCUAAUUUCACUCCCUUUCCGGAUGAGUGGACAGUGGAAGAUAAA | -0.98
CUCAAGUCCUGUGCUACACAUCGUAUGUACCGAAUCGGUUUGGUUUGGUUUGGAAAGUAUUAUGUUACGCCGUUCGGAUCUGCACUUCCA | -1.28

Set 4 — method: protein-binding microarray; form: double-stranded DNA, one strand shown; medium: in vitro; concentration: 0.8 µM; setting: whole 60-bp probe, no competitor; reading: higher = stronger binding; all sequences stand within: … GTCTTGATTCGCTTGACGCTGCTG
Target: Centromere-binding protein 1, full length, N-terminal tag (CBF1, Saccharomyces cerevisiae, UniProt P17106, residues 1-351)
Chain of UniProt P17106 (whole entry, looked up): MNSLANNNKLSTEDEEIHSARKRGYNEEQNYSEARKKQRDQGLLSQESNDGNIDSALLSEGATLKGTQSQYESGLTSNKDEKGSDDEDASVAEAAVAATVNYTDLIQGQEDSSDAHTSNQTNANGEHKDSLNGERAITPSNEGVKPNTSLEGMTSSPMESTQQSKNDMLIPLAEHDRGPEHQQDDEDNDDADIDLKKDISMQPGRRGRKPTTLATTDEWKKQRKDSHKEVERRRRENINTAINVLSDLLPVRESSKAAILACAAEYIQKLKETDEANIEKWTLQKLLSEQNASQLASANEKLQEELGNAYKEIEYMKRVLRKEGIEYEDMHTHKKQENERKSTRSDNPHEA
Sequence | fluorescence intensity [a.u.]
CTAGTAACCTATGGTCACGGCCAGATTTTTTCCTTC | 656
CTAATAAGAAGGACGAGCGTGGTGGAGGAAAGGTTC | 543
CTAGAAGCAGAAATACACGCAATAAGTGAATCTTTC | 549
GAAATCTCGGAAGAACACCACATGATGCAAGTTTAG | 1010
GAAGTTGCTAGGAACGTGATGATGGATTTCGTTTAG | 1120
TGTACGAAGCTATACTTCGTGCATATAGTAGTTAGG | 492
CCTAACTACTATAGTCACATCTTATAGCTTCGTACA | 540
CTACATTTTTAACGTGGTGAGAAAACCCGAAATTTC | 632
TGTACGAAGCTATAGCACGTAACTATAGTAGTTAGG | 529
GAATACGACTCCCTGCACATGGTTGCTATTTTTTAG | 767
CCTAACTACTATAATGGTGACGCATAGCTTCGTACA | 533
CCTAACTACTATATACACACGTCATAGCTTCGTACA | 550
GAATTCAAGTTATATAACGTGAGAGATAAAATATAG | 719
GAAAATATTCCGATGTACGTGTGTGTGGCTGATTAG | 549
GAAGGACCCGTTTATTGCGTGTTAACAACTGTATAG | 531
GAACCATCTTTCACTTATCTGATGTTCCTGATTTAG | 784
CTAAGAAACATACATCATCACTCAGACGATAAGTTC | 537
CTATAGTGGCGGTATCTCCTGTGCCTTCCCCCGTTC | 478
CTAATATTGACGCCAAGCGTGCGTCTGATTTCTTTC | 518
GAATGTGTGTACCATCACGTTTCTTGTTAAATATAG | 1190
GAATCGACTAGTATTCACGTTACTAGTATATTCTAG | 910
TGTACGAAGCTATACCACCACACTATAGTAGTTAGG | 545

Set 5 — target: CCNB2, cyclin fold, Cln2 fusion (human); method: yeast growth competition, sequencing; medium: yeast; setting: weak parent motif; baseline: not given; reading: higher = stronger binding
Starting sequence: PKN2 docking peptide (human); VSAVQKLDFSDTM; partner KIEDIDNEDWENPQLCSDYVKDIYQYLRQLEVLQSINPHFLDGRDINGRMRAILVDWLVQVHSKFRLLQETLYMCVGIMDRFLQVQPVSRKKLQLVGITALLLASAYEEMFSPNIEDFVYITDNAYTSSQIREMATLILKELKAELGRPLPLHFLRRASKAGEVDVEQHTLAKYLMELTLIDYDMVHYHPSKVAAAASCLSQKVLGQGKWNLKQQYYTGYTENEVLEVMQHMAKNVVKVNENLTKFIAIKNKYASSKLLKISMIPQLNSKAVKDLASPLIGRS
Change | normalised enrichment score
VSAVQKLDASDTM [F9A] | -0.0464
VSAVQRLDFSDTM [K6R] | -0.174
VSAVQKEDFSDTM [L7E] | -0.0906
VSAVQKFDFSDTM [L7F] | -0.137
VSAVQKLDFSDTS [M13S] | -0.00152
VSAVQKLDYSDTM [F9Y] | 0.238
VSAVQKLDFLDTM [S10L] | -0.518
VSAVQKLDFSLTM [D11L] | 0.0887
VSAVQKLDTSDTM [F9T] | -0.142
VSAVQKLEFSDTM [D8E] | -0.261
VSAVQKLDCSDTM [F9C] | -0.374
VSAVQKLPFSDTM [D8P] | -0.0863
VSAVQKLDFSATM [D11A] | -0.0321
VYAVQKLDFSDTM [S2Y] | 0.0301
VSAVQKLDFSDFM [T12F] | -0.181
VSAFQKLDFSDTM [V4F] | -0.00518

For quick reference, copied from above (set 4):
Sequence | fluorescence intensity [a.u.]
TGTACGAAGCTATACCACCACACTATAGTAGTTAGG | 545
GAAATCTCGGAAGAACACCACATGATGCAAGTTTAG | 1010
CCTAACTACTATAATGGTGACGCATAGCTTCGTACA | 533
CTAGAAGCAGAAATACACGCAATAAGTGAATCTTTC | 549
GAAAATATTCCGATGTACGTGTGTGTGGCTGATTAG | 549
GAATGTGTGTACCATCACGTTTCTTGTTAAATATAG | 1190
CTAGTAACCTATGGTCACGGCCAGATTTTTTCCTTC | 656
GAATACGACTCCCTGCACATGGTTGCTATTTTTTAG | 767
CTAATAAGAAGGACGAGCGTGGTGGAGGAAAGGTTC | 543
CTAAGAAACATACATCATCACTCAGACGATAAGTTC | 537
CTAATATTGACGCCAAGCGTGCGTCTGATTTCTTTC | 518
CTACATTTTTAACGTGGTGAGAAAACCCGAAATTTC | 632
TGTACGAAGCTATAGCACGTAACTATAGTAGTTAGG | 529
CTATAGTGGCGGTATCTCCTGTGCCTTCCCCCGTTC | 478
